Assay results collected from several papers.
Parts stem from different laboratories: compare values within a part only. “And” joins repeats or separate records; there may be more than shown.

Set 1 — technique: RNA Bind-n-Seq; molecule type: RNA; sample: in vitro; concentration: 200 nM; notes: whole 134-nt RNA, ends assumed; together with: 150 mM LiCl; baseline: input library; reading: higher = stronger binding; library: 7-deaza-guanosine replaces G
Target: Ras GTPase-activating protein-binding protein 1, full length (G3BP1, Homo sapiens, UniProt Q13283)
Sequence of UniProt Q13283 (whole entry, looked up): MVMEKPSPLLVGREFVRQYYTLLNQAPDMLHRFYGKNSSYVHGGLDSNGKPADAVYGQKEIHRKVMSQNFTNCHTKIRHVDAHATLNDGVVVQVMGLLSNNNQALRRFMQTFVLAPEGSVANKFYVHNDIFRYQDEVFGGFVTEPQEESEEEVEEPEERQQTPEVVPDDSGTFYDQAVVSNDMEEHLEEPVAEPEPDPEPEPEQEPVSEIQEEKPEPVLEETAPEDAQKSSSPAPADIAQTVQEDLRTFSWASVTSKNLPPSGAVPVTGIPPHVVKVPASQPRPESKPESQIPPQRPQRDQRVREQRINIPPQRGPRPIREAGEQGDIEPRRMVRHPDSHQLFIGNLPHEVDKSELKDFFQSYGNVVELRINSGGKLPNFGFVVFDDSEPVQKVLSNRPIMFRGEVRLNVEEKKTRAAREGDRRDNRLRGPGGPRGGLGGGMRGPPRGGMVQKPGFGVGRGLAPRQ
Strand	log2 enrichment
GGGAGUUCUACAGUCCGACGAUCGCAGGAAGUAAAAACAAAUGGAAAUGAUUCGGAUAGUGGCAGGGGUGGGGGUUGCUAAGGAAAGGGUGGGAUGGGAGUGGGUAAAGAGUUUGGAAUUCUCGGGUGUCAAGG	-0.208
GGGAGUUCUACAGUCCGACGAUCAUGUUCUUGAAUACUUAGCAAACAUACCAGCAUCCCAAAGUCACCAAGAUAAACCCUCCUACUCCAACAUCACAUGAUCUUCUAAUUCUAUGGAAUUCUCGGGUGUCAAGG	1.38
GGGAGUUCUACAGUCCGACGAUCAGUCCUGUGCUACACAUCGUAUGUACCGAAUCGGCCCCCGGGCCCCCGGGCCCCCGGAAAGUAUUAUGUUACGCCGUUCGGAUCUGCACUUGGAAUUCUCGGGUGUCAAGG	-1.27

Set 2 — technique: protein binding microarray; molecule type: double-stranded DNA, one strand shown; sample: in vitro; concentration: not given; baseline: not given; reading: higher = stronger binding
Target: Histone acetyltransferase KAT6A, both winged helices, GST fusion (KAT6A, Homo sapiens, UniProt Q92794, residues 1-181)
Notes: 8-mer, flanks averaged, mean of 2 arrays, mostly near background
Residues (chain): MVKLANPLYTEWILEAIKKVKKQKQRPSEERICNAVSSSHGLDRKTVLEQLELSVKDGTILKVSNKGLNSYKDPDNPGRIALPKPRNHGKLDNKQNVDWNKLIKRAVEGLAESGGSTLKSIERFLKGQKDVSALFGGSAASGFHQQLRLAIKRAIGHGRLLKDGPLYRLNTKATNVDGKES
Strand	E-score
AATCGCCG	0.359
GCGTCAGC	0.278
ACCACCGC	0.166
GCCGGCAA	0.309

Set 3 — technique: protein-binding microarray; molecule type: double-stranded DNA, one strand shown; sample: in vitro; concentration: 2200 nM top; notes: 60-bp whole probe; together with: salmon DNA 0.4 mg/ml; baseline: random background probes; reading: higher = stronger binding; constant ends, left off below: GCCTAGCAC … GTCTTGATTCGCTTGACGCTGCTG
Target: Interferon regulatory factor 7, full length, phosphomimetic (IRF7, Homo sapiens, UniProt Q92985, residues 1-503, S471D/S472D/S475D/S476D/S477D/S483D/S484D/S487D)
Residues (chain): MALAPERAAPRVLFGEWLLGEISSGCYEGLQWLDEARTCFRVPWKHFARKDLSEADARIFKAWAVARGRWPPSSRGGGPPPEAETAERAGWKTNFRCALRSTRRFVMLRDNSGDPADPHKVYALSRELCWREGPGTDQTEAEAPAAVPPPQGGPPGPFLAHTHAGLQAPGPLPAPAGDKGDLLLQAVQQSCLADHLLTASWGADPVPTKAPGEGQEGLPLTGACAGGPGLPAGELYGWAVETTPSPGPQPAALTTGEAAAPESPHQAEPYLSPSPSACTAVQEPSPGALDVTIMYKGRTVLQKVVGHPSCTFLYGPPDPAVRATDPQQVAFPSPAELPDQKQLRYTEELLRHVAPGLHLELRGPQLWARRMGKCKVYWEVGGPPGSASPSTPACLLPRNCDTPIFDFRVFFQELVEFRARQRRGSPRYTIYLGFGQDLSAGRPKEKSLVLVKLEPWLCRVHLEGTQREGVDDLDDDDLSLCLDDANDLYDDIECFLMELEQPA
Strand	fitted relative affinity
TCTACTGTCTGTTTCCTCTTGTGCTAG	2.78 z-score
TCAACCATCTAGTTCTGACTGTGCTAG	0.692 z-score
TTAGGTTCCGGTTTCGGTTGGTGCTAG	10.3 z-score
CTCCCATTATATTTTAATCAGTGCTAG	1.58 z-score
GATGGTTTCGACACTGGGGACGTGCTA	2.6 z-score

Mixed results
Substance	target	test	test system	setting	how to read	endpoint	result
PhoQ, residues 284 288 289 292 302 303 TLSLKA	PhoP, residues 12 14 15 18 19 LWHCS (Escherichia coli, UniProt P23836)	Sort-seq, item: YFP reporter	E. coli	PhoQ-PhoP variant library, together with: 10 µM Mg2+	baseline: high Mg2+ state, higher = stronger signaling	fold induction	1.17 and 0.939

A few entries again (mixed results):
Substance	target	test	test system	setting	how to read	endpoint	result
PhoQ, residues 284 288 289 292 302 303 TLSLKA	PhoP, residues 12 14 15 18 19 LWHCS (Escherichia coli, UniProt P23836)	Sort-seq, item: YFP reporter	E. coli	PhoQ-PhoP variant library, together with: 10 µM Mg2+	baseline: high Mg2+ state, higher = stronger signaling	fold induction	1.17 and 0.939
